Published values of several laboratories.
Protocols differ between the studies behind these lines. Numbers after ± are the reported error.
CNR1: Cannabinoid receptor 1 (CNR1, Homo sapiens, UniProt P21554)
UniProt P21554, sequence (whole entry, looked up): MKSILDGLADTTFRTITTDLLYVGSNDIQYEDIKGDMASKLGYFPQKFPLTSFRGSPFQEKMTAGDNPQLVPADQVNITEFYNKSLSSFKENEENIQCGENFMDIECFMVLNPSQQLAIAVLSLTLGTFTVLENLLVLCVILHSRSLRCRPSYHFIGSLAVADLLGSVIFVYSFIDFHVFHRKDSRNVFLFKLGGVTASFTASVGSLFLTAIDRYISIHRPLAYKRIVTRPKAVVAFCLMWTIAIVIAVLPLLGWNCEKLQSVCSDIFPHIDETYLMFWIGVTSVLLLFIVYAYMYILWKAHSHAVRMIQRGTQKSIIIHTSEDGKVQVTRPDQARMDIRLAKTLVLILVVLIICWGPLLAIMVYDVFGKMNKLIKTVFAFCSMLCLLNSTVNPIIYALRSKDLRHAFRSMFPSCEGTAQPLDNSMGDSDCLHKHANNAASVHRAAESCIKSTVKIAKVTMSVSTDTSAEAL
Gabrg2/Gabra3 with β3 subunit: Gabrg2/Gabra3, with β3 subunit (Rattus norvegicus, UniProt P18508+P20236)
UniProt P18508, sequence (whole entry, looked up): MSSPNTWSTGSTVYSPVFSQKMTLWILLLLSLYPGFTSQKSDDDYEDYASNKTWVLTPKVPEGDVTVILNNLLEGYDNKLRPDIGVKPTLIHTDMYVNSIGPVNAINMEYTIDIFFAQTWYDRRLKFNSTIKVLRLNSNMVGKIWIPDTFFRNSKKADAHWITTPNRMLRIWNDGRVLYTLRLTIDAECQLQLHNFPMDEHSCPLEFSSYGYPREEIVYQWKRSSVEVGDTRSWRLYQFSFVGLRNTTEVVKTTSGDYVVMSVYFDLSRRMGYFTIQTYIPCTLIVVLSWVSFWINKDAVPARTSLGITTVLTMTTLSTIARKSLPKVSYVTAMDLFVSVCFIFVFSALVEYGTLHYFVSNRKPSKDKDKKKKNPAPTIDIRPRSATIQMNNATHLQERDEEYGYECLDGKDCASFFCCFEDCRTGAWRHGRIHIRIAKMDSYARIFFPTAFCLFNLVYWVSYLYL
UniProt P20236, sequence (whole entry, looked up): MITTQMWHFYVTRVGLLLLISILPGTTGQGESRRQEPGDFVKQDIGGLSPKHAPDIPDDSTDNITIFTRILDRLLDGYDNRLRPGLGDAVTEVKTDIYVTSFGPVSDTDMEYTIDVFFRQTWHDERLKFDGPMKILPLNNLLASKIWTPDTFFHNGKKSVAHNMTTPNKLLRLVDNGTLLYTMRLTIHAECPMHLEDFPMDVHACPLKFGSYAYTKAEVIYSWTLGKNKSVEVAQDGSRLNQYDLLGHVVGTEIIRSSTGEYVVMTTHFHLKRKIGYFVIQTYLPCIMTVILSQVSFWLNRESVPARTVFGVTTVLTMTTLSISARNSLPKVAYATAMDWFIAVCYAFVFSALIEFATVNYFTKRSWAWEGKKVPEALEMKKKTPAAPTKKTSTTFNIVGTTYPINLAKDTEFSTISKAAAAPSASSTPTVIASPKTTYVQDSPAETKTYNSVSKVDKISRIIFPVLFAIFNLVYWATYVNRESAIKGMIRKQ
UniProt P08908, sequence (whole entry, looked up): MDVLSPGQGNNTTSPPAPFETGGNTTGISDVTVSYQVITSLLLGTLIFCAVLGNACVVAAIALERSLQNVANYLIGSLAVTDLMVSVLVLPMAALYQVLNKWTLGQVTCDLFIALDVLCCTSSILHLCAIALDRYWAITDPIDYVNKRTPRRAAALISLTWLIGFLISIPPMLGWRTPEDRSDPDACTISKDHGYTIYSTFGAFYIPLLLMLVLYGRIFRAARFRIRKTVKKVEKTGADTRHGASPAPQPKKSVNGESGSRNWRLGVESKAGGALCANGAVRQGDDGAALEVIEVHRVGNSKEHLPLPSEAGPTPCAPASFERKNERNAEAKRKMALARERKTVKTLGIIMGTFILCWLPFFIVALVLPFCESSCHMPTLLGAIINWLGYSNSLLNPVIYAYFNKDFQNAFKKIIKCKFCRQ
UniProt P28335, sequence (whole entry, looked up): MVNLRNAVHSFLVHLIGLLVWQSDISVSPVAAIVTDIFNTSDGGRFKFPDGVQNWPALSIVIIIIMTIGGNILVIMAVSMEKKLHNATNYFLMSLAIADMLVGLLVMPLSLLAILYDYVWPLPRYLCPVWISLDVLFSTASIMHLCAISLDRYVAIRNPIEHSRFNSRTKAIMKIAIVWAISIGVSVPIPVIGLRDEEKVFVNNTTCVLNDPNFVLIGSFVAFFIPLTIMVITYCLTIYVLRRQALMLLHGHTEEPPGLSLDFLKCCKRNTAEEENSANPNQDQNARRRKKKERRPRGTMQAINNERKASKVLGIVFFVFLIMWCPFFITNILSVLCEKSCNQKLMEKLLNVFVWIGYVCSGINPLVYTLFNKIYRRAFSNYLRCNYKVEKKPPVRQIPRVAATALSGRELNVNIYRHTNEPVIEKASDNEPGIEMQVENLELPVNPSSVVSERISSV
UniProt Q923Y8, sequence (whole entry, unmodified, looked up): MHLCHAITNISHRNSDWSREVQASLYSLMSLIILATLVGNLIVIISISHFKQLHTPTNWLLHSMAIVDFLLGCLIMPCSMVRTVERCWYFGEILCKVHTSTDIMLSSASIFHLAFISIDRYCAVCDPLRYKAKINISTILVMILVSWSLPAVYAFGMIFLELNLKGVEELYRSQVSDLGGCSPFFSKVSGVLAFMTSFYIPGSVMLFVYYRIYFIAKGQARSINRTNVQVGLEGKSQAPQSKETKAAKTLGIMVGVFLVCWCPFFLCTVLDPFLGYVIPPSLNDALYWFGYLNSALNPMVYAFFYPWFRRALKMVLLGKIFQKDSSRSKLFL
UniProt P62813, sequence (whole entry, looked up): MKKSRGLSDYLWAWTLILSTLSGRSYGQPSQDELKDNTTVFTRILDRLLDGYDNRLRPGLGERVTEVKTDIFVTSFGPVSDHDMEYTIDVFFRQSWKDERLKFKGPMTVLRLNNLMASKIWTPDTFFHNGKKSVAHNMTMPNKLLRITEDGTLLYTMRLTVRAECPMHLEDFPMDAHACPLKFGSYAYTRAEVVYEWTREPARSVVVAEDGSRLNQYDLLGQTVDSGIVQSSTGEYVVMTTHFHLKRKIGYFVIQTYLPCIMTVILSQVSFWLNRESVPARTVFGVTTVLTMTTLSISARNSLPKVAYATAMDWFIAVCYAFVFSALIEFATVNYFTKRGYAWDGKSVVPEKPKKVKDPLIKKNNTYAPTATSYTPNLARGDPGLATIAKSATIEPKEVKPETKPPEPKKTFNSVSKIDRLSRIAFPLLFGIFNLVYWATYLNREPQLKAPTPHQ

SMILES	target	assay	system	conditions	how to read	Emax [%]
CN(C)CCc1c[nH]c2ccc(O)cc12	HTR1A (Homo sapiens, UniProt P08908)	calcium signal, agonist				95
CN1C(=O)CN=C(c2ccccc2)c2cc(Cl)ccc21	Gabrg2/Gabra1, with β3 subunit (Rattus norvegicus, UniProt P18508+P62813)	GABA-induced chloride current, two-electrode voltage clamp	Xenopus oocytes	together with: GABA at EC3		324 ± 22
CNC(=O)[C@@H](NC(=O)c1nn(Cc2ccc(F)cc2)c2ccccc12)C(C)C	CNR1	calcium mobilization, agonist	CHO-K1 expressing Gαq16		baseline: CP55,940 maximum	120 ± 1
CN1CCN(C(=O)OC2c3nccnc3C(=O)N2c2ccc(Cl)cn2)CC1 (stereo not drawn)	Gabrg2/Gabra3 with β3 subunit	GABA-induced chloride current, two-electrode voltage clamp	Xenopus oocytes	together with: GABA at EC3		559 ± 30
NCCc1ccc(Oc2ccc(O)cc2)c(I)c1	Taar1 (Mus musculus, UniProt Q923Y8, Y153F)	cAMP accumulation, agonist, cell-based		TM4 mutant	baseline: 1	100
CN1CCCCC1Cn1cc(C(=O)C23CC4CC(CC(C4)C2)C3)c2ccccc21 (stereo not drawn)	CNR1	GIRK channel response, agonist	AtT20 expressing CB1		baseline: WIN 55212-2 10 µM	63.5 ± 3.9
CN1C(=O)CC(=O)N(c2ccccc2)c2cc(Cl)ccc21	Gabrg2/Gabra3 with β3 subunit	positive allosteric modulator, whole-cell patch clamp	HEK293	α3β3γ2 subunits, together with: GABA at EC10		317 ± 30
COC(=O)[C@@H](NC(=O)c1nn(CCCCF)c2ccccc12)C(C)(C)C	CNR1	GIRK channel response, agonist	AtT20 expressing CB1		baseline: WIN 55212-2 10 µM	115 ± 2.9
C[C@H]1CNCCc2ccc(Cl)cc21	HTR2C (Homo sapiens, UniProt P28335)	calcium flux, agonist, FLIPR	HEK293 expressing receptor			98
O=C(NCc1ccc(F)cc1)c1nn(Cc2ccc(F)cc2)c2ccccc12	CNR1	calcium mobilization, agonist	CHO-K1 expressing Gαq16		baseline: CP55,940 maximum	91 ± 4
C=CCCCn1nc(C(=O)N[C@H](C(=O)OC)C(C)(C)C)c2ccccc21	CNR1	GIRK channel response, agonist	AtT20 expressing CB1		baseline: WIN 55212-2 10 µM	101 ± 5.2
CNC(=O)C(C)(C)NC(=O)c1nn(Cc2ccc(F)cc2)c2ccccc12	CNR1	calcium mobilization, agonist	CHO-K1 expressing Gαq16		baseline: CP55,940 maximum	111 ± 2
CCCCCn1cc(C(=O)C2C(C)(C)C2(C)C)c2ccccc21	CNR1	GIRK channel response, agonist	AtT20 expressing CB1		baseline: WIN 55212-2 10 µM	51.3 ± 3.3
CC(C)(NC(=O)c1nn(Cc2ccc(F)cc2)c2ccccc12)C(=O)Nc1cccc(C(N)=O)c1	CNR1	calcium mobilization, agonist	CHO-K1 expressing Gαq16		baseline: CP55,940 maximum	112 ± 2
COC(=O)[C@@H](NC(=O)c1cn(CCCCCF)c2ccccc12)C(C)(C)C	CNR1	GIRK channel response, agonist	AtT20 expressing CB1		baseline: WIN 55212-2 10 µM	108 ± 4.3

Repeated from above:
SMILES	target	assay	system	conditions	how to read	Emax [%]
CNC(=O)C(C)(C)NC(=O)c1nn(Cc2ccc(F)cc2)c2ccccc12	CNR1	calcium mobilization, agonist	CHO-K1 expressing Gαq16		baseline: CP55,940 maximum	111 ± 2
NCCc1ccc(Oc2ccc(O)cc2)c(I)c1	Taar1 (Mus musculus, UniProt Q923Y8, Y153F)	cAMP accumulation, agonist, cell-based		TM4 mutant	baseline: 1	100
